Results collected from several papers.
Numbered parts are unrelated; each lists some results of a single study. Substitutions count along the parent as printed.
Sequence of UniProt P62344 (whole entry, looked up): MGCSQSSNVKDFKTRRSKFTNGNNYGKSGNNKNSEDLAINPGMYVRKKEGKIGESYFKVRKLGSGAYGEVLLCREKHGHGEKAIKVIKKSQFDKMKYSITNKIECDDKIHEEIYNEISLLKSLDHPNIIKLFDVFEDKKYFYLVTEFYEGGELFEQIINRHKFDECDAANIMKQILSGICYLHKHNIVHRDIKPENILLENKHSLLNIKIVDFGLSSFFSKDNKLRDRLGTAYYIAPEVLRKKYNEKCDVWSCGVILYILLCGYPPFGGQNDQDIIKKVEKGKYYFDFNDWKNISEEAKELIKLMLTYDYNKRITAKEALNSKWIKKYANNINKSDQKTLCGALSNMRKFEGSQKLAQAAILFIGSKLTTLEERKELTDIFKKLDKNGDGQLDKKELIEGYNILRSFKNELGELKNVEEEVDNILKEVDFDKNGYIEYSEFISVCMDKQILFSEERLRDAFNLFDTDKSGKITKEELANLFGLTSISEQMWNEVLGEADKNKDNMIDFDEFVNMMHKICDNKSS
Sequence of UniProt Q9Y5N1 (whole entry, looked up): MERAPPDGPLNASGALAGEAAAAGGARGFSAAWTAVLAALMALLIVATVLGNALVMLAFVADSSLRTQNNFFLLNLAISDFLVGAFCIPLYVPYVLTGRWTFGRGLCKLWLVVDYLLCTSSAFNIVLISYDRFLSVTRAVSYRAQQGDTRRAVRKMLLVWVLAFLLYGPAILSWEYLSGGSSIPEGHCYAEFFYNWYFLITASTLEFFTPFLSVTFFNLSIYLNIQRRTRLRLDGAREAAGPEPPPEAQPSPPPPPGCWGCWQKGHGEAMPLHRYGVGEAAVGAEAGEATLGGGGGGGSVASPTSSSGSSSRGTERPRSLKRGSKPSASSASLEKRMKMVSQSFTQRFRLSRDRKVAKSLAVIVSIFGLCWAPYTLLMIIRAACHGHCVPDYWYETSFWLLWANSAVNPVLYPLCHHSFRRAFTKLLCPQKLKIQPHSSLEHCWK

Sample 1 — target: CCND3, cyclin fold, Cln2 fusion (human); technique: yeast growth competition, sequencing; matrix: yeast; setting: weak parent motif; relative to: not given; direction: higher = stronger binding
Parent: viral docking peptide; TSVRRALFTGGSD; partner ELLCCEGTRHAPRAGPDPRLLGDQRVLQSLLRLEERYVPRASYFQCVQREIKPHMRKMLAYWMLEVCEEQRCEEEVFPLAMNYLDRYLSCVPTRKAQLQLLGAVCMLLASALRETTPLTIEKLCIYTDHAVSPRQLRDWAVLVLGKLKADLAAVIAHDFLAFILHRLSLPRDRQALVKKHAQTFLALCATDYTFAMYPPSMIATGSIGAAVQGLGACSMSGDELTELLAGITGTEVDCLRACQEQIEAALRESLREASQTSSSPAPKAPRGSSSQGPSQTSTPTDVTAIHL
| Substitution | normalised enrichment score |
| --- | --- |
| S2T | 0.0348 |
| R5G | 0.0804 |
| F8L | 0.16 |
| G11W | 0.0136 |
| T9A | 0.116 |
| R4T | 0.0619 |
| R5T | -0.109 |

Single results of other studies
| Structure (SMILES) | target or system | test | test system | setting | endpoint | value |
| --- | --- | --- | --- | --- | --- | --- |
| CC(C)[C@]12O[C@H]1[C@@H]1O[C@]13[C@]1(O[C@H]1C[C@H]1C4=C(CC[C@@]13C)C(=O)OC4)[C@@H]2O | Sarcocystis neurona | parasite growth | GFP/luciferase reporter | 10 µM, hit confirmation screen | inhibition | 97.8% |
| CC(=O)N[C@@H](Cc1c[nH]c2ccccc12)C(=O)N[C@@H](CCC(=O)C=[N+]=[N-])C(=O)OC(C)C | – | – | C57BL/6 CES1-/- mouse, blood | intravenous, 1 mg/kg equivalent | white blood cell count | 5.82 |
| C=C[C@H]1C[N@+]2(Cc3cc(C(C)(C)C)c(OC)c(C(C)(C)C)c3)CC[C@H]1C[C@H]2[C@H](O)c1ccnc2ccccc12 | – | – | mouse, microsomes or S9 | 2 µM, 0.5 h | remaining compound | 42.2% |
| CNC(=O)c1cc(C(=O)NC2CC2)cn(Cc2ccccc2)c1=O | HRH3 (Homo sapiens, UniProt Q9Y5N1) | binding, radioligand binding | – | 10 µM | inhibition | -8.16% |
| CN1C(=O)CN=C(c2ccccc2)c2cc(Cl)ccc21 | Sarcocystis neurona | parasite growth | GFP/luciferase reporter | 10 µM, hit confirmation screen | inhibition | -0.9% |
| Cc1nc(NCCc2c[nH]cn2)cc([C@H]2C[C@@H](O)C2)n1 | – | – | mouse, microsomes or S9 | 2 µM, 0.5 h | remaining compound | > 99% |
| CN(C)c1ncnc(-c2ccc3nc(Nc4cc(CN5CCN(C(=O)CC(F)(F)F)CC5)ccn4)[nH]c3c2)c1Cl | CDPK1 (Plasmodium falciparum, UniProt P62344) | cell-free assay, competition with immobilised ligand | – | 1 µM | remaining binding | 100% |

For quick reference, copied from above (single results of other studies):
| Structure (SMILES) | target or system | test | test system | setting | endpoint | value |
| --- | --- | --- | --- | --- | --- | --- |
| Cc1nc(NCCc2c[nH]cn2)cc([C@H]2C[C@@H](O)C2)n1 | – | – | mouse, microsomes or S9 | 2 µM, 0.5 h | remaining compound | > 99% |
